{"data": "Measured values of several laboratories", "MAPK8": "Mitogen-activated protein kinase 8 (MAPK8, Homo sapiens, UniProt P45983)", "note": "Compare with care: the assays were run in different laboratories. ± gives the spread as reported."}
{"Structure (SMILES)": "C/C(=N\\OCCN1CCN(C)CC1)c1ccc(C(F)(F)F)cc1", "target": "Sigmar1 (Rattus norvegicus, UniProt Q9R0C9)", "test": "radioligand binding", "system": "rat", "Ki [nM]": "55.2 ± 3.18"}
{"Structure (SMILES)": "CCCCCCCCC(CCCCCCCC=CCCCCCCCC(CCCCCCCC)C(=O)OCC1(CO)CC(=C(C)C)C(=O)O1)C(=O)OCC1(CO)CC(=C(C)C)C(=O)O1 (racemic)", "target": "Protein kinase C delta type, C1b domain (Prkcd, Mus musculus, UniProt P28867)", "test": "binding, [3H]PDBu competition", "conditions": "5 min, 37 °C, with: phosphatidylserine 100 µg/mL", "Ki [nM]": "2.52 ± 0.46"}
{"Structure (SMILES)": "Cc1cc(S(=O)(=O)O)ccc1N=Nc1c(O)ccc2ccccc12", "target": "Bcl-2-related protein A1 (Mus musculus, UniProt Q07440, C113S/P104K)", "test": "binding, inhibitor, fluorescence polarization", "conditions": "with: FITC-labelled Noxa peptide", "Ki [nM]": 2780}
{"Structure (SMILES)": "CCOC(=O)C1(C2CCCCC2)C=C(C(=O)OC(C)(C)C)C(=O)CC1 (stereo not shown)", "target": "MAPK8", "test": "docking peptide binding, competitive inhibitor, fluorescence polarization", "conditions": "with: labelled JIP1 peptide", "Ki [nM]": "47000 ± 8300"}
{"Structure (SMILES)": "O=C(O)c1cc(C(=O)N[C@@H](Cc2ccc(O)cc2)C(=O)O)cc([C@H]2CCN[C@@H]2C(=O)O)c1", "target": "NMDA receptor (rat)", "test": "binding, radioligand binding", "system": "rat cortical synaptosomes", "conditions": "with: [3H]CGP39653", "Ki [nM]": 960}
{"Structure (SMILES)": "CCOC(=O)NC(=O)/C(C#N)=C/c1ccc(C)c(C)c1", "target": "PRKCA-binding protein, PDZ domain (Pick1, Rattus norvegicus, UniProt Q9EP80)", "test": "binding, fluorescence polarization", "conditions": "with: labelled hDAT C-terminal peptide", "Ki [nM]": "23000 ± 3000"}
{"Structure (SMILES)": "C=C1C[C@]2(C(=O)OC)C=C(C(=O)OC(C)(C)C)C(=O)[C@H]1C2 (relative stereo)", "target": "MAPK8", "test": "docking peptide binding, competitive inhibitor, fluorescence polarization", "conditions": "with: labelled JIP1 peptide", "Ki [nM]": "2100 ± 200"}
{"Structure (SMILES)": "CC1(C)C(=CC=C2CCCC(C=CC3=[N+](CCCCS(=O)(=O)O)c4ccc(S(=O)(=O)O)cc4C3(C)C)=C2Oc2ccc(S(=O)(=O)O)cc2)N(CCCCCC(=O)NCCOCCOCC(=O)NCCCC[C@H](NC(=O)N[C@@H](CCC(=O)O)C(=O)O)C(=O)O)c2ccc(S(=O)(=O)[O-])cc21", "target": "FOLH1 (Homo sapiens, UniProt Q04609)", "test": "enzyme activity, inhibitor", "conditions": "compound in water, with: [3H]NAAG 30 nM", "Ki [nM]": "0.04 ± 0.01"}
{"Structure (SMILES)": "COc1cc2c(cc1OC)CN(C(C)CCc1ccc(O)cc1)CC2 (single isomer, unassigned)", "target": "SIGMAR1 (Cavia porcellus, UniProt Q60492)", "test": "binding, radioligand displacement", "system": "guinea pig brain homogenate", "conditions": "with: [3H](+)-pentazocine", "Ki [nM]": "87.6 ± 20.1"}
{"Structure (SMILES)": "CCCc1cc2c(N3CCn4c(nnc4C(F)(F)F)C3)nc(OCCF)nc2s1 [isotope labelled]", "target": "P2Y purinoceptor 12 (P2ry12, Rattus norvegicus, UniProt Q9EPX4)", "test": "binding, antagonist, competitive displacement", "system": "rat, membranes", "Ki [nM]": "24.5 ± 9.3"}
{"Structure (SMILES)": "CCC(NC(=O)C(CC(C)C)NC(=O)Cc1ccncc1)C(=O)C(=O)NCc1cc(OC)cc(OC)c1 (stereo not shown)", "target": "CAPN1 (Homo sapiens, UniProt P07384)", "test": "enzyme activity, inhibitor, Suc-Leu-Tyr-AMC hydrolysis", "system": "purified enzyme", "Ki [nM]": "63 ± 16"}
{"Structure (SMILES)": "CN(C)c1ccc(C#CCOC(=O)[C@@]2(C)C=C(C(=O)OC(C)(C)C)C(=O)CC2)cc1", "target": "MAPK8", "test": "D-peptide displacement, fluorescence polarization", "Ki [nM]": "2400 ± 900"}
{"Structure (SMILES)": "O=C(O)CNC(=O)c1cc(C(=O)O)cc([C@H]2CCN[C@@H]2C(=O)O)c1", "target": "Glutamate receptor ionotropic, kainate 1 (Rattus norvegicus, UniProt P22756)", "test": "binding, radioligand binding", "system": "Sf9 membranes", "conditions": "homomeric receptor, with: [3H]SYM2081", "Ki [nM]": "25200 ± 1800"}
{"Structure (SMILES)": "CCCCCCCCCCCCc1ccc(C(=O)NC2(C(=N)N)CC2)cc1", "target": "SPHK1 (Homo sapiens, UniProt Q9NYA1)", "test": "inhibitor, TLC", "Ki [nM]": 300}
{"Structure (SMILES)": "NC(=O)c1cccc(C#CCNCC2OC(n3cnc4c(N)ncnc43)C(O)C2O)c1 (stereo not shown)", "target": "NNMT (Homo sapiens, UniProt P40261)", "test": "binding, fluorescence polarisation competition", "conditions": "30 min, room temperature, enzyme 0.5 µM, with: fluorescent probe 5 nM", "Ki [nM]": "5600 ± 1200"}
{"Structure (SMILES)": "Cn1cnc(C[C@H](NC(=O)[C@@H]2CCC(=O)N2)C(=O)N2CCC[C@H]2C(N)=O)c1 [isotope labelled]", "target": "Thyrotropin-releasing hormone receptor (Mus musculus, UniProt P21761)", "test": "radioligand binding, competition binding", "system": "HEK293 cells", "conditions": "1 h, 37 °C, with: [3H][N(1)-methyl-His]TRH", "Ki [nM]": 3}
